Results gathered from unrelated publications.
Each line is one published result; not all experiments were run side by side.
Organism: Mycobacterium tuberculosis

SMILES = CN1CCN(c2ccc(Nc3nccc(-c4ccnc(NCc5ccccc5)c4)n3)cc2C(F)(F)F)CC1; system = H37Rv auxotroph; MIC = > 100 µM
SMILES = NC[C@H]1O[C@H](O[C@H]2[C@H](O)[C@@H](O[C@H]3O[C@H](CO)[C@@H](O)[C@H](N)[C@H]3O)[C@H](N)C[C@@H]2N)[C@H](O)[C@@H](O)[C@@H]1O; system = H37Rv; MIC = 2.5 µg/mL
SMILES = CC[C@@H](CO)NCCN[C@@H](CC)CO; assay = Alamar blue; system = 192; MIC = 2.45 µM
SMILES = CN1CCN(c2ccc(Nc3nccc(-c4cccc([N+](=O)[O-])c4)n3)cc2C(F)(F)F)CC1; system = H37Ra ATCC 25177; conditions = median; MIC = 9.9 µg/mL
SMILES = NC(=S)NN=Cc1ccc(OC(=O)CN2C(=O)CSC2=O)c(Cl)c1; assay = Alamar blue; system = 192; MIC = 10.3 µM
SMILES = Nc1ccc(S(=O)(=O)c2ccc(N)cc2)cc1; system = pabC deletion mutant; conditions = concentration not given, 12 days; MIC = 0.5 to 1 µM
SMILES = CCCCCCCCCCC[C@@H](C[C@@H]1OC(=O)[C@H]1CC1CCCCC1)OC(=O)[C@H](CC(C)C)NC=O; assay = resazurin microtiter; system = H37Ra; MIC = 8.4 µg/mL
SMILES = Cc1ccc(NC(=O)c2ccccc2)cc1Nc1nccn1-c1cc(NC2CCCC2)ncn1; MIC = > 20 µM
SMILES = CCOc1cc(C=NNC(N)=S)ccc1OC(=O)CN1C(=O)CSC1=O; assay = Alamar blue; system = 192; MIC = 2.52 µM
SMILES = CC(C)C[C@H](NC(=O)[C@@H](N)CO)C(=O)N[C@@H](CCC(=O)O)C(=O)N[C@H](C(=O)N[C@H](C(=O)N[C@@H](CCC(=O)O)C(=O)N[C@@H](C)C(=O)N[C@@H](CC(=O)O)C(=O)O)[C@@H](C)O)C(C)C; system = H37Rv; MIC = > 200 µg/mL
SMILES = [H]/N=C(/N)N[C@H]1[C@H](O)[C@@H](O)[C@H](O[C@@H]2O[C@@H](C)[C@](O)(C=O)[C@H]2O[C@@H]2O[C@@H](CO)[C@H](O)[C@@H](O)[C@@H]2NC)[C@@H](N/C(N)=N\[H])[C@@H]1O; assay = Microplate Alamar Blue; system = H37Rv; conditions = 5 days, 37 °C; MIC = 0.5 µg/mL
SMILES = COc1c(N2C[C@@H]3CCCN[C@@H]3C2)c(F)cc2c(=O)c(C(=O)O)cn(C3CC3)c12; assay = broth microdilution; system = H37Rv; MIC = 0.31 µM
SMILES = Cc1cn(C2CCN(Cc3cccc(Oc4ccccc4)n3)CC2)c(=O)[nH]c1=O; system = H37Rv; MIC = > 250 µg/mL
SMILES = NNC(=O)c1ccncc1; assay = broth microdilution; system = H37Rv; MIC = 0.46 µM
SMILES = CN[C@@H]1[C@H](O)[C@H](NC)[C@H]2O[C@@]3(O)C(=O)C[C@@H](C)O[C@H]3O[C@@H]2[C@H]1O; system = H37Rv; MIC = 50 µg/mL
SMILES = CN1CCN(c2ccc(Nc3nccc(-c4ccc(Cl)cc4)n3)cc2C(F)(F)F)CC1; system = H37Rv auxotroph; MIC = 25 µM
SMILES = O=[N+]([O-])c1cn2c(n1)OC[C@@H](OCc1ccc(N3CCCCC3)c(F)c1)C2; assay = growth; system = H37Rv; MIC = 0.02 to 0.05 µg/mL
SMILES = NNC(=O)c1ccncc1; assay = Alamar blue; system = 192; MIC = 0.228 µM
SMILES = NNC(=O)c1ccncc1; system = H37Rv wild type; MIC = 0.078 µg/mL
SMILES = CN1CCN(c2ccc(Nc3nccc(-c4cccnc4)n3)cc2C(F)(F)F)CC1; system = H37Rv auxotroph; MIC = > 100 µM
SMILES = CNC(=O)c1c(-c2ccc(O)cc2)oc2ccc(O)c(CN3CCCCC3)c12; assay = MABA; system = H37Rv; MIC = 0.05 µM
SMILES = O=[N+]([O-])c1cn2c(n1)OC[C@@H](OCc1ccc(OC(F)(F)F)cc1)C2; system = H37Rv wild type; MIC = 0.312 µg/mL
SMILES = CCCCCCCCCCCC(CC1OC(=O)C1C1CCCCC1)OC(=O)C(CC(C)C)NC=O (stereo not shown); assay = resazurin microtiter; system = H37Ra; MIC = 49 µg/mL
SMILES = CS(=O)(=O)Nc1ncn(-c2cc(F)c(COc3ccc(OS(=O)(=O)F)cc3)c(F)c2)n1; system = Erdman drug-susceptible lineage 4; MIC = 0.063 µM
SMILES = C#CCOc1ccc2oc(-c3ccc(OC)cc3)c(C(=O)OCC)c2c1CN1CCCCC1; system = CDC1551; MIC = 1.8 µM
SMILES = CC[C@@H](CO)NCCN[C@@H](CC)CO; conditions = compound alone; MIC = 12.5 µM
SMILES = CN1CCN(c2ccc(Nc3nccc(-c4ccccc4)n3)cc2C(F)(F)F)CC1; system = H37Ra ATCC 25177; conditions = median; MIC = 10.3 µg/mL
SMILES = Cc1nc2[nH]c(=O)n(O)c(=O)c2s1; assay = growth; conditions = with: valine, isoleucine and leucine 1 mM; MIC = > 30 µM
SMILES = CN1CCN(c2ccc(Nc3nccc(-c4cccc(Cl)c4)n3)cc2C(F)(F)F)CC1; system = H37Rv auxotroph; MIC = 12.5 µM
SMILES = CC[C@@H](CO)NCCN[C@@H](CC)CO; system = H37Rv wild type; MIC = 2.5 µg/mL
SMILES = CN1CCN(c2ccc(Nc3nccc(-c4ccc5ccccc5c4)n3)cc2C(F)(F)F)CC1; system = H37Rv auxotrophic strain; MIC = 6.6 µg/mL
SMILES = COc1cc(C=NNC(N)=S)ccc1OC(=O)CN1C(=O)CSC1=O; assay = Alamar blue; system = 192; MIC = 5.23 µM
SMILES = Nc1ccc(C(=O)O)c(O)c1; system = H37Rv wild type; MIC = 0.039 µg/mL
SMILES = CN1CCN(c2ccc(Nc3nccc(-c4ccnc(Cl)c4)n3)cc2C(F)(F)F)CC1; system = H37Rv auxotrophic strain; MIC = 28 µg/mL

Repeated from above:
SMILES = Cc1nc2[nH]c(=O)n(O)c(=O)c2s1; assay = growth; conditions = with: valine, isoleucine and leucine 1 mM; MIC = > 30 µM
SMILES = CN[C@@H]1[C@H](O)[C@H](NC)[C@H]2O[C@@]3(O)C(=O)C[C@@H](C)O[C@H]3O[C@@H]2[C@H]1O; system = H37Rv; MIC = 50 µg/mL
SMILES = CCOc1cc(C=NNC(N)=S)ccc1OC(=O)CN1C(=O)CSC1=O; assay = Alamar blue; system = 192; MIC = 2.52 µM
SMILES = CC[C@@H](CO)NCCN[C@@H](CC)CO; system = H37Rv wild type; MIC = 2.5 µg/mL
